Measurements collected from several papers.
Several values in a cell are separate wells, animals, samples, runs or records. Numbers after ± are the reported error. Values after ≈ are worked out from the molar mass of the structure shown.

| SMILES | organism | test | system | conditions | how to read | endpoint | result |
| --- | --- | --- | --- | --- | --- | --- | --- |
| CC(C)CC(C(=O)N1CC2(CC1C#N)C(=O)Nc1ccccc12)N(C)C(=O)c1cc2c(F)cc(F)c(F)c2[nH]1 (stereo not shown) | SARS-CoV-2 | viral replication, infectious virus | Vero E6 | 0.041 µM |  | inhibition | 95% |
| C#CCN(Cc1ccc2[nH]c(C)nc(=O)c2c1)c1ccc(C(=O)N[C@@H](CCC(=O)O)C(=O)O)cc1 | Mycobacterium tuberculosis |  | pptH knockout |  |  | MIC | > 100 µM |
| COc1ccc(C2=[N+]([O-])c3ccccc3N3CCCN=C23)cc1 | Clostridium perfringens |  |  |  |  | MIC90 | 32 µg/mL (≈ 104 µM) |
| O=S(=O)(Nc1ccccc1)c1ccc(N=C=S)cc1 | Escherichia coli | refers to: ler, eae, stx2a | EHEC O157:H7 | concentration not given |  | mRNA level | decreased |
| Nc1nc(Nc2ccc(Cl)c(Cl)c2)nn1S(=O)(=O)c1ccc2ccccc2c1 | Japanese encephalitis virus | viral replication | Vero 76, SA-14 |  |  | EC50 | 3.1 µM |
| CC(=O)OCCOCn1cnc(C#N)c1C#N | Severe acute respiratory syndrome coronavirus | viral replication | Vero | 48 h |  | IC50 | 15 µg/mL |
| CCC(NC(=O)NNS(=O)(=O)c1ccc(C)cc1)(C(F)(F)F)C(F)(F)F | Severe acute respiratory syndrome coronavirus |  | Vero | concentration not given |  | antiviral activity | inactive |
| [O-][N+]1=C(c2ccc(Cl)cc2)C2=NCCCN2c2ccccc21 | Clostridium perfringens |  |  |  |  | MIC | 16 to 64 µg/mL |
| Oc1ccccc1Oc1ccccc1 | Francisella tularensis | bacterial growth | LVS |  |  | MIC90 | 2.5 ± 0.2 µg/mL (≈ 13.4 µM) |
| CN1CCN(CCCN2c3ccccc3Sc3ccc(C(F)(F)F)cc32)CC1 | SARS coronavirus |  | Vero 76, Urbani |  |  | EC90 | 8 µM |
| CC[C@H](C)[C@H](NC(=O)[C@H](CCCCN)NC(=O)[C@H](CCCCN)NC(=O)[C@H](CC(C)C)NC(=O)[C@H](Cc1c[nH]c2ccccc12)NC(=O)CN)C(=O)NCC(=O)N[C@@H](CCCCN)C(=O)N[C@@H](CCCCN)C(=O)N[C@H](C(=O)N[C@@H](CCC(=O)O)C(=O)N[C@@H](CCCNC(=N)N)C(=O)N[C@H](C(=O)NCC(=O)N[C@@H](CCC(N)=O)C(=O)N[C@@H](Cc1c[nH]cn1)C(=O)N[C@H](C(=O)N[C@@H](CCCNC(=N)N)C(=O)N[C@@H](CC(=O)O)C(=O)N[C@@H](C)C(=O)N[C@H](C(=O)N[C@H](C(=O)N[C@@H](CCC(N)=O)C(=O)N[C@H](C(=O)N[C@H](C(=O)NCC(=O)N[C@H](C(=O)N[C@@H](C)C(=O)N[C@@H](CCC(N)=O)C(=O)N[C@@H](CCC(N)=O)C(=O)N[C@@H](C)C(=O)N[C@@H](C)C(=O)N[C@@H](CC(N)=O)C(=O)N[C@H](C(=O)N[C@@H](C)C(=O)N[C@@H](C)C(=O)N[C@H](C(=O)N[C@@H](CC(C)C)C(=O)N[C@@H](CCCCN)C(N)=O)[C@@H](C)O)C(C)C)C(C)C)[C@@H](C)CC)[C@@H](C)O)[C@@H](C)CC)[C@@H](C)O)[C@@H](C)O)C(C)C)[C@@H](C)CC | S. maltophilia, M. morganii, S. fonticola |  | clinical isolates |  |  | MIC | ≥ 64 µg/mL |
| COC(=O)c1ncn(CCOP(=O)(O)O)c1C(=O)OC | Zaire ebolavirus | viral replication, inhibitor | Vero | 72 h |  | IC50 | 12 µg/mL |
| CCN(CC)Cc1cc(Nc2ccnc3cc(I)ccc23)ccc1O | Ebola virus | viral infection | GFP reporter |  | baseline: amodiaquine | potency improvement | 3.3 fold |
| Oc1cccc(O)c1-c1c2nc(c(-c3c(O)cccc3O)c3ccc([nH]3)c(-c3c(O)cccc3O)c3nc(c(-c4c(O)cccc4O)c4ccc1[nH]4)C=C3)C=C2 | vaccinia virus | extracellular enveloped virus | BSC-40, IHD-J |  |  | EC50 | 0.32 ± 0.11 µg/mL |
| [O-][N+]1=C(c2ccsc2)C2=NCCCN2c2ccccc21 | Clostridium perfringens |  |  |  |  | MIC | 2 to 8 µg/mL |
| N#Cc1ncn(COCCOCc2ccccc2)c1C#N | Zaire ebolavirus | viral replication, inhibitor | Vero | 72 h |  | IC50 | 13 µg/mL |
| O=[N+]([O-])c1ccc(-n2nc(-c3ccc(F)cc3)cc2-c2ccc(F)cc2)c([N+](=O)[O-])c1 | Japanese encephalitis virus | western blot | Neuro2a | 15 µM, 72 h |  | NS1 protein reduction | > 95% |
| Cc1ccc(NS(=O)(=O)c2c(C(=O)N3CCCCCC3)c(C)n(C)c2C)c(Cl)c1 | Monkeypox virus | qPCR | Vero C1008, wild type | 0.8 µM, 72 h | baseline: untreated | relative infection | 39.8% and 22.7% and 43.5% |
| CN1CCN(C(=O)N[C@@H](Cc2ccccc2)C(=O)N[C@H](/C=C/S(=O)(=O)c2ccccc2)CCc2ccccc2)CC1 | Bundibugyo ebolavirus | pseudovirus entry | HEK-293T |  |  | IC50 | 0.00591 ± 0.0005 µM |
| [O-][N+]1=C(c2ccccc2)C2=NCCN2c2ccccc21 | Clostridium perfringens | microbial growth |  |  |  | MIC50 | 0.5 µg/mL (≈ 1.9 µM) |
| Cc1ccc(N2CC(N3CCC(C)(O)CC3)C2)cc1C(=O)NC1(c2ccc3c4c(cccc24)CC3)CC1 | SARS-CoV-2 | viral replication | Vero C1008, Omicron BA.5 | 12.5 µM |  | inhibition | 100% |
| O=C(C=Cc1ccc(O)c(O)c1)OC1CC(O)(C(=O)O)CC(OC(=O)C=Cc2ccc(O)c(O)c2)C1O (stereo not shown) | Severe acute respiratory syndrome coronavirus 2 | cytopathic effect, inhibitor | Vero C1008 | 6.25 µM |  | inhibition | 0% |

Excerpt of the above:
| SMILES | organism | test | system | conditions | how to read | endpoint | result |
| --- | --- | --- | --- | --- | --- | --- | --- |
| COC(=O)c1ncn(CCOP(=O)(O)O)c1C(=O)OC | Zaire ebolavirus | viral replication, inhibitor | Vero | 72 h |  | IC50 | 12 µg/mL |
